# Measurements collected from several papers.
# Lines come from different studies, so protocols differ. Values joined by “and” are separate records of one study, mostly repeats; a detail may differ. ± marks the error that the study gave.
SMILES,assay,test system,conditions,tissue uptake
CC(C)[C@H](NC(=O)[C@@H]1CCCN1C(=O)[C@H](CCCNC(=N)N)NC(=O)[C@H](CS)NC(=O)[C@H](Cc1c[nH]c2ccccc12)NC(=O)[C@H](CCCNC(=N)N)NC(=O)[C@@H](Cc1ccccc1)NC(=O)[C@H](Cc1c[nH]cn1)NC(=O)[C@H](CCC(=O)O)NC(=O)[C@H](CS)NC(=O)[C@H](CS)NC(=O)CNC(=O)[C@@H]1CC(=O)N[C@@H](CCCNC(=N)N)C(=O)NCC(=O)N[C@@H](CC(=O)O)C(=O)N[C@H](Cc2ccc(O)cc2)C(=O)N1)C(N)=O [technetium-99m labelled],,"C57 mice B16/F1 melanoma female, skin","iv, 2 h, added: NDP-MSH 10 µg co-injected",1.11 ± 0.54 %ID/g
O=C([O-])c1cccc(CN(CCN(Cc2cn(Cc3ccccc3)nn2)Cc2cccc(C(=O)[O-])n2)Cc2cn(Cc3ccccc3)nn2)n1.[64Cu+2],,"healthy athymic nude mice, small intestine","intravenous, 1 h",14.3 %ID/g
NC12CNCCNCC(NCc3ccc(CNC(=O)CCCC(=O)NCc4ccc(-c5nncnn5)cc4)cc3)(CNCCNC1)CNCCNC2.[64Cu+2],,"athymic nude mice SW1222 xenograft, tumor","4 h post injection, 24 h accumulation interval, added: huA33-TCO pretargeting",5.6 %ID/g and 5.56 %ID/g
CCCC[C@H](NC(=O)CNC(=O)CNC(=O)CN1CCN(CC(=O)O)CCN(CC(=O)O)CCN(CC(=O)O)CC1)C(=O)N[C@H]1CC(=O)NCCCC[C@@H](C(N)=O)NC(=O)[C@H](Cc2c[nH]c3ccccc23)NC(=O)[C@H](CCCNC(=N)N)NC(=O)[C@@H](Cc2ccccc2)NC(=O)[C@H](Cc2c[nH]cn2)NC1=O [gallium-67 labelled],,"female C57 mice, B16/F1 melanoma, stomach","intravenous, 0.037 MBq, 24 h",0.62 ± 0.23 %ID/g
O=C(NCC1OC2CCC=CCCC2O1)c1ccc(COCCOCCOCC[18F])cc1 (centres unmarked),,"female BALB/c nude mice, bone","intravenous, 60 min",2.05 ± 0.12 %ID/g
CN1C(=O)[C@@H](Cc2ccc(O)c(I)c2)NC(=O)CNC(=O)[C@H](Cc2ccc3ccccc3c2)NC(=O)[C@H](CCCNC(=N)N)NC(=O)[C@H]1CCCNC(=O)c1ccc(CNC(=O)CN2CCN(CC(=O)O)CCN(CC(=O)O)CCN(CC(=O)O)CC2)cc1 [lutetium-177 labelled],item: 177Lu radioactivity,"female CB-17 SCID mice, Daudi xenograft, skin","intravenous, 0.16 nmol per mouse, 6 h",0.19 ± 0.02 %ID/g
O=C([O-])CN1CCN(CC(=O)[O-])CCN(CC(=O)[O-])CCN(CC(=O)[O-])CC1.[64Cu+2],,"healthy athymic nude mice, lung","intravenous, 15 min",2.61 %ID/g
CCCC[C@H](NC(=O)CNC(=O)CNC(=O)CN1CCN(CC(=O)O)CCN(CC(=O)O)CC1)C(=O)N[C@H]1CC(=O)NCCCC[C@@H](C(N)=O)NC(=O)[C@H](Cc2c[nH]c3ccccc23)NC(=O)[C@H](CCCNC(=N)N)NC(=O)[C@@H](Cc2ccccc2)NC(=O)[C@H](Cc2c[nH]cn2)NC1=O [gallium-67 labelled],,"female C57 mice, B16/F1 melanoma, blood","intravenous, 0.037 MBq, 24 h",0.55 ± 0.12 %ID/g
CCCC[C@@H]1NC(=O)[C@@H](NC(=O)[C@H](CCC(=O)O)NC(=O)CNC(=O)CN2CCN(CC(=O)O)CCN(CC(=O)O)CCN(CC(=O)O)CC2)CCCCNC(=O)C[C@@H](C(N)=O)NC(=O)[C@H](C(C)C)NC(=O)[C@@H]2CCCN2C(=O)[C@H](CCCNC(=N)N)NC(=O)CNC(=O)[C@H](Cc2c[nH]c3ccccc23)NC(=O)[C@H](CCCNC(=N)N)NC(=O)[C@@H](Cc2ccccc2)NC(=O)[C@H](Cc2c[nH]cn2)NC(=O)[C@H](CCC(=O)O)NC1=O [gallium-67 labelled],,"C57 mice with B16/F1 melanoma, bone","intravenous, 0.037 MBq, 0.5 h",0.61 ± 0.29 %ID/g
CCCC[C@H](NC(=O)CN1CCC(NC(=O)CN2CCN(CC(=O)O)CCN(CC(=O)O)CCN(CC(=O)O)CC2)CC1)C(=O)N[C@H]1CC(=O)NCCCC[C@@H](C(N)=O)NC(=O)[C@H](Cc2c[nH]c3ccccc23)NC(=O)[C@H](CCCNC(=N)N)NC(=O)[C@@H](Cc2ccccc2)NC(=O)[C@H](Cc2c[nH]cn2)NC1=O [gallium-68 labelled],,"male C57BL/6J mice, B16-F10 tumours, brain","intravenous, 1 h, blocking study, added: 100 µg non-radioactive Ga-peptide",0.1 %ID/g
O=C([O-])CN1CCN(CC(=O)[O-])CCN(CC(=O)NCCc2ccc3c(c2)C2C=CCC2C(c2cc4c(cc2Br)OCO4)N3)CCN(CC(=O)[O-])CC1.[111In+3] (centres unmarked),,"mice with Hec50 tumour xenograft, stomach","2 h, added: G-1 5 µg blocking",0.61 ± 0.35 %ID/g

# Some of these lines once more:
SMILES,assay,test system,conditions,tissue uptake
O=C([O-])CN1CCN(CC(=O)[O-])CCN(CC(=O)[O-])CCN(CC(=O)[O-])CC1.[64Cu+2],,"healthy athymic nude mice, lung","intravenous, 15 min",2.61 %ID/g
NC12CNCCNCC(NCc3ccc(CNC(=O)CCCC(=O)NCc4ccc(-c5nncnn5)cc4)cc3)(CNCCNC1)CNCCNC2.[64Cu+2],,"athymic nude mice SW1222 xenograft, tumor","4 h post injection, 24 h accumulation interval, added: huA33-TCO pretargeting",5.6 %ID/g and 5.56 %ID/g
